Results of several laboratories.
Compare with care: the assays were run in different laboratories. Values joined by “and” are separate records of one study, mostly repeats; a detail may differ. ± gives the spread as reported.

CC(C)N(P(c1ccccc1)c1ccccc1)P(c1ccccc1)c1ccccc1.Cc1ccc(C(C)C)cc1.F[B-](F)(F)F.[Cl][Ru+] — AUC(0-inf) (measured: ruthenium; BALB/c nude mice, serum; ip, 5 mg/kg): 792 µg·h/L
[11CH3]N1CCN(CCCOc2ccc(=O)n(-c3ccc(Cl)c(Cl)c3)n2)CC1 — uptake (PET-CT; BALB/c mouse male, heart; intravenous, dose not given, 5 min): 5.1 ± 0.68 %ID/cc
CNc1cc(OC)c(Nc2nccc(-c3cn(C4CC4)c4ccccc34)n2)cc1NC(=O)CCSCC(NC(C)=O)C(=O)O (stereo not shown) — excreted amount (radio-HPLC, co-eluting peaks pooled; human, feces; 0 to 240 h, sample holds 81.99% dose; reference: dose): 6.76%
NC[C@@H](C(=O)Nc1ccc(-c2cn[nH]c2)cc1)c1ccccc1 — chemosis score (OECD 405 eye irritation; New Zealand White rabbit, eye; topical, 0.1%, 96 h (day 5), scale 0 to 4; direction not given): 0
CNc1cc(OC)c(Nc2nccc(-c3cn(C4CC4)c4ccccc34)n2)cc1NC(=O)CCSCC(N)C(=O)O (stereo not shown) — excreted amount (human, urine and feces; 0 to 96 h urine, 0 to 240 h feces; reference: dose): 6.83%
O=C([O-])CN1CCN(CC(=O)[O-])CCN(CC(=O)NCC2CCC(C(=O)NC(Cc3ccc4ccccc4c3)C(=O)NCCCCC(NC(=O)NC(CCC(=O)O)C(=O)O)C(=O)O)CC2)CCN(CC(=O)[O-])CC1.[44Sc+3] (stereo not shown) — intact complex (transchelation stability; 4 h, 37 °C, together with: DTPA 10 mM): 96.7 ± 0.5%
CN[C@@H](CCOc1cccc2ccccc12)c1ccccc1 — t1/2β geometric mean ratio (healthy male human, plasma; oral, together with: dapoxetine with udenafil; reference: combination over dapoxetine alone): 0.992
O=S1(=O)CC2CCCCC2CS1 (stereo not shown) — association constant (phase solubility; water; 25.0 °C, together with: β-cyclodextrin): 4090 M⁻¹
O=C([O-])CN1CCN(CC(=O)[O-])CCN(CC(=O)NC[C@H]2CC[C@H](C(=O)N[C@H](Cc3cnc4ccccc4c3)C(=O)NCCCC[C@H](NC(=O)N[C@@H](CCC(=O)O)C(=O)O)C(=O)O)CC2)CCN(CC(=O)[O-])CC1.[64Cu+2] — absorbed dose (PET/CT dosimetry OLINDA/EXM; healthy volunteers, kidneys; up to 24 h post-injection): 0.165 mGy/MBq
COC(=O)c1ccc(-c2cn(Cc3cc(Cl)ccc3O[11CH3])nn2)cc1 — distribution volume (PET, Logan plot, t*=40 min; rhesus monkey, brain WB; dose not given): 0.434 mL/cm³
CCCCOc1nc(N)c2[nH]c(=O)n(CCCN(CCCN3CCOCC3)Cc3cccc(CC(=O)OC)c3)c2n1 — lung concentration (rat, Brown Norway, lung; intratracheal, 0.3 mg/kg, maintained over 5 h): > 1000 nmol/kg
COCC1CN(C2CCN(c3cc(OC)c(Nc4ncc(Br)c(Nc5ccc6c(c5P(C)(C)=O)OCCO6)n4)cc3C)CC2)C1 — treatment-related Hypokalemia, all grades (human patients; oral, 10 to 240 mg once daily): 11.1%
CC(=O)N[C@H](CCCCN)C(=O)N[C@H](CC(C)C)C(=O)N[C@H](CCCCN)C(=O)N[C@H](CO)C(=O)N[C@H](CC(C)C)C(=O)N[C@H](CC(C)C)C(=O)N[C@H](CCCCN)C(=O)N[C@@H](C(=O)N[C@H](CC(C)C)C(=O)N[C@H](CO)C(=O)N[C@H](CCCCN)C(=O)N[C@H](C)C(=O)N[C@H](CCCCN)C(=O)N[C@H](CCCCN)C(=O)N[C@H](CCCCN)C(=O)N[C@H](CCCCN)C(=O)N[C@H](CC(C)C)C(=O)N[C@H](CCCCN)C(=O)N[C@@H](C(=O)N[C@H](CC(C)C)C(=O)N[C@H](CC(C)C)C(=O)N[C@H](CCCCN)C(=O)N[C@H](C)C(=O)N[C@H](CC(C)C)C(=O)N[C@H](CO)C(=O)N[C@H](CCCCN)C(N)=O)[C@H](C)O)[C@H](C)O — helical content (circular dichroism; 50% trifluoroethanol buffer; 5 °C; reference: reference peptide in TFE): 89%
O=C(O)/C=C/c1cccc(S(=O)(=O)Nc2ccccc2)c1 — AUC(0-inf) metabolic ratio (human, moderate liver dysfunction, plasma; intravenous, 400 mg/m^2 belinostat, cycle 1 day -7, geometric mean; reference: metabolite over belinostat): 0.666
COc1cccc([O-])c1C=NCCCN(C)CCN(C)CCCN=Cc1c([O-])cccc1OC.[67Ga+3] — tissue uptake ratio (rat; intravenous, 1 min; reference: heart over liver): 0.85 ± 0.22
CCCC[C@H](NC(=O)CNC(=O)CNC(=O)CN1CCN(CC(=O)O)CCN(CC(=O)O)CC1)C(=O)N[C@H]1CC(=O)NCCCC[C@@H](C(N)=O)NC(=O)[C@H](Cc2c[nH]c3ccccc23)NC(=O)[C@H](CCCNC(=N)N)NC(=O)[C@@H](Cc2ccccc2)NC(=O)[C@H](Cc2c[nH]cn2)NC1=O [gallium-67 labelled] — tumour to tissue ratio (female C57 mice, B16/F1 melanoma; intravenous, 0.037 MBq, 2 h; reference: tumour over muscle): 74.5
CC(C)C[C@@H](NC(=O)[C@H](NC(=O)[C@H]1CCCN1)[C@H](C)O)C(=O)N[C@H](Cc1c[nH]cn1)C(=O)N[C@@H](C(=O)N[C@H](Cc1c[nH]cn1)C(=O)N[C@H](CC(N)=O)C(=O)N[C@H](CCCNC(=N)N)C(=O)N[C@H](CCCNC(=N)N)C(=O)N[C@H](CCCNC(=N)N)C(=O)N[C@H](CCCNC(=N)N)C(=O)N[C@H](CCCNC(=N)N)C(N)=O)[C@H](C)O — AUC fraction of gamma phase (Beagle dog, plasma; intravenous, 3 mg/kg, single dose): 3.4%
CCCC[C@H](NC(C)=O)C(=O)N[C@H]1CC(=O)NCCCC[C@@H](C(=O)N[C@@H](C(=O)N2CCC[C@@H]2C(N)=O)C(C)C)NC(=O)[C@H](Cc2c[nH]c3ccccc23)NC(=O)[C@H](CCCN=C(N)N)NC(=O)[C@@H](Cc2ccc3ccccc3c2)NC(=O)[C@@H]2CCCN2C1=O — AUC (Beagle dog, both sexes, plasma; subcutaneous, once daily, 2.25 mg/kg, day 5): 32300 ± 5200 ng·h/mL
COC(=O)C(c1ccccc1Cl)N1CCC(SCC(=O)c2cccc(OC)c2)C(=CC(=O)O)C1 (mixture of isomers) — deviation from nominal (HPLC-MS/MS; feline EDTA plasma; 100 ng/mL, 48 h, -80 °C, storage stability): 5%
Cn1c(=O)oc2ccc(-c3ccc(CC(C#N)NC(=O)C4CNCCCO4)c(F)c3)cc21 (stereo not shown) — tlag median (human; 40 mg, single dose, fasted): 0 h
O=C(NCCCN(CCCCN(CCCNC(=O)c1cccc(=O)n1[O-])C(=O)c1cccc(=O)n1[O-])C(=O)c1cccc(=O)n1[O-])c1cccc(=O)n1[O-].[89Zr+4] — tracer uptake (mouse, kidney; 1 h): 1.05 %ID/g
COc1cc2c(cc1OC)CN(CCCCn1ccc3cc(OCC[18F])ccc31)C2 — uptake (ICR mice, male, stomach; intravenous, 30 min): 2.83 ± 0.54 %ID/organ
COc1ccc(NC(=O)[C@H](CCCCN)NC(=O)c2cc(NC(=O)[C@H](CCCCN)NC(=O)c3cc(NC(=O)[C@H](CCCCN)NC(=O)c4cc(N)ccc4OC)ccc3OC)ccc2OC)cc1C(N)=O — association midpoint concentration (UV-vis λmax shift; TBS; pH 7.4, monomer-hexamer fit, together with: NaCl 0.15 M): 0.08 mM
Nc1nc(-n2nnc3c2CCC2C(CO)C2CC3)nc2c1ncn2C1OC(CO)C(O)C1O (mixture of isomers) — fluorescence lifetime τ1 (frequency-domain fluorometry; methanol): 0.3 ns
CC(=O)N([O-])CCCCCNC(=O)CCC(=O)N([O-])CCCCCNC(=O)CCC(=O)N([O-])CCCCCN.[89Zr+4] — intact complex (radio-iTLC; aqueous buffer; 3 h, pH 8.0, 37 °C, EDTA challenge, together with: 100-fold excess EDTA): 97.5 ± 0.4%
CC(C)[C@H](NC(=O)[C@@H]1CCCN1C(=O)[C@H](CCCNC(=N)N)NC(=O)[C@H](CS)NC(=O)[C@H](Cc1c[nH]c2ccccc12)NC(=O)[C@H](CCCNC(=N)N)NC(=O)[C@@H](Cc1ccccc1)NC(=O)[C@H](Cc1c[nH]cn1)NC(=O)[C@H](CCC(=O)O)NC(=O)[C@H](CS)NC(=O)[C@H](CS)NC(=O)[C@@H]1CC(=O)N[C@@H](CCCNC(=N)N)C(=O)NCC(=O)N[C@@H](CC(=O)O)C(=O)N[C@H](Cc2ccc(O)cc2)C(=O)N1)C(N)=O [technetium-99m labelled] — tissue uptake (C57 mouse, female, B16/F1 melanoma, brain; intravenous, 0.037 MBq, 24 h): 0.02 ± 0.02 %ID/g
CCCC[C@@H]1NC(=O)[C@@H](NC(=O)[C@H](CCC(=O)O)NC(=O)CNC(=O)CN2CCN(CC(=O)O)CCN(CC(=O)O)CCN(CC(=O)O)CC2)CCCCNC(=O)C[C@@H](C(N)=O)NC(=O)[C@H](C(C)C)NC(=O)[C@@H]2CCCN2C(=O)[C@H](CCCNC(=N)N)NC(=O)CNC(=O)[C@H](Cc2c[nH]c3ccccc23)NC(=O)[C@H](CCCNC(=N)N)NC(=O)[C@@H](Cc2ccccc2)NC(=O)[C@H](Cc2c[nH]cn2)NC(=O)[C@H](CCC(=O)O)NC1=O [gallium-67 labelled] — tissue uptake (C57 mice with B16/F1 melanoma, stomach; intravenous, 0.037 MBq, 0.5 h): 1.3 ± 0.36 %ID/g
Cc1cn(-c2ccc(-c3cc(C)c(N[C@@H](C)c4ccc(F)cc4)nn3)nc2O[11CH3])cn1 — brain uptake (PET-MRI; male rhesus macaque, brain; intravenous, 2 mCi): 0.8 to 3 SUV
Cc1cc(O)c(C=O)c2c1C(=O)Oc1c(CO)c(O)c3c(c1O2)C(O)OC3=O (stereo not shown) — IC50 (protein glycation; bovine serum albumin; 6 days, together with: D-fructose): 218 ± 7.25 nM
CC1=CC(C)=[N+]2C1=Cc1ccc(CCC(=O)N3CCN(C(=O)c4cc(Cc5n[nH]c(=O)c6ccccc56)ccc4F)CC3)n1[B-]2(F)F — weighted half-life (athymic nude NU/J mouse, whole blood; intravenous, 2.5 mg/kg): 24.5 min
O=C([O-])c1cccc(CN(CCN(Cc2cn(Cc3ccccc3)nn2)Cc2cccc(C(=O)[O-])n2)Cc2cn(Cc3ccccc3)nn2)n1.[64Cu+2] — transchelation to serum proteins (measured: 64Cu; human serum; 20 h, 37 °C): < 2%
CC(C)[C@H](NC(=O)CNC(=O)[C@H](CCC(N)=O)NC(=O)[C@H](C)N)C(=O)O — volume of distribution (LC-MS/MS; human, male, plasma; intravenous, 10 mg/kg three times daily, day 1, first dose, 10 min infusion, geometric mean): 5 L/kg
NC(=O)[C@H](Cc1ccccc1)N[11C](=O)OCc1ccccc1 — intact tracer (male Wistar rats, brain supernatant; intravenous, 45 min): 96.7% and 97%
CC(O)c1nc(-c2ccc3c(c2)CCC3NC(=O)c2cnn(C)c2)no1 (stereo not shown) — AUC0-inf reduction (human, plasma; oral, 20 mg of aficamten; reference: aficamten): ~44%

Some of these lines once more:
NC(=O)[C@H](Cc1ccccc1)N[11C](=O)OCc1ccccc1 — intact tracer (male Wistar rats, brain supernatant; intravenous, 45 min): 96.7% and 97%
COC(=O)C(c1ccccc1Cl)N1CCC(SCC(=O)c2cccc(OC)c2)C(=CC(=O)O)C1 (mixture of isomers) — deviation from nominal (HPLC-MS/MS; feline EDTA plasma; 100 ng/mL, 48 h, -80 °C, storage stability): 5%
